Results gathered from unrelated publications.
Compare with care: the assays were run in different laboratories. Numbers after ± are the reported error.
Cell line: Jurkat

SMILES | test | setting | IC50 [µM]
Cc1ccc(C2C([N+](=O)[O-])C(Cc3ccc(O)cc3)NC23C(=O)c2cccc4cccc3c24)cc1 (centres unmarked) | cell growth or viability, MTT | 48 h | 37.8
CC1=CC2(C)C(=C(C)C3C4CC(C)CC(C)C4C4Oc5ccc(cc5)CC5(O)NC(=O)C(=C(O)C2C43)C5Nc2ncnc3c2ncn3C2OC(CO)C(O)C2O)C1C (centres unmarked) | cell growth or viability, resazurin | 72 h | 4.4
O=C(N=P12CN3CN(CN(C3)C1)C2)c1cccc[c]1[Pd][Br].O=S(=O)([O-])c1cccc(P(c2cccc(S(=O)(=O)[O-])c2)c2cccc(S(=O)(=O)[O-])c2)c1.[Na+].[Na+].[Na+] | cytotoxicity, MTT | 24 h, 1% DMSO | 322 ± 29
O=C1c2cccc3cccc(c23)C12NC(Cc1ccc(O)cc1)C([N+](=O)[O-])C2c1ccc(Br)cc1 (centres unmarked) | cell growth or viability, MTT | 24 h | 65.7
Cc1ccc(C(C)C)cc1.O=C(N=P12CN3CN(CN(C3)C1)C2)c1[c-]cccc1.[Cl-].[Ru+2] | cell viability, MTT | 24 h | 17.7 ± 7.5
C1=CCCC=CCC1.F[P-](F)(F)(F)(F)F.[Pt+][c]1ccccc1P(=Nc1ccccc1)(c1ccccc1)c1ccccc1 | cell viability, MTT | 24 h | 0.53 ± 0.13
CC[C@@H]1NC(=O)[C@H]([C@H](O)[C@H](C)Cc2nc3ccc(C(=O)c4ccccc4)cc3[nH]2)N(C)C(=O)[C@H](C(C)C)N(C)C(=O)[C@H](CC(C)C)N(C)C(=O)[C@H](CC(C)C)N(C)C(=O)[C@@H](C)NC(=O)[C@H](C)NC(=O)[C@H](CC(C)C)N(C)C(=O)[C@H](C(C)C)NC(=O)[C@H](CC(C)C)N(C)C(=O)CN(C)C1=O | reporter gene, inhibitor, NFAT luciferase reporter | – | 1.3
O=C1c2cccc3cccc(c23)C12NC(Cc1ccc(O)cc1)C([N+](=O)[O-])C2c1cccc([N+](=O)[O-])c1 (centres unmarked) | cell growth or viability, MTT | 24 h | 66.5
Cc1ccc(C(C)C)cc1.F[P-](F)(F)(F)(F)F.O=C(N=P(c1ccccc1)(c1ccccc1)c1ccccc1)c1ccccn1.[Cl-].[Ru+2] | cell viability, MTT | 24 h | 1.1 ± 0.14
CN(C)C(=S)[S][Pd][c]1ccccc1C(=O)N=P12CN3CN(CN(C3)C1)C2 | cytotoxicity, MTT | 24 h, 1% DMSO | 142 ± 9
Cc1ccc(C(C)C)cc1.O=C(N=P(c1ccccc1)(c1ccccc1)c1ccccc1)c1[c-]cccc1.[Cl-].[Ru+2] | cell viability, MTT | 24 h | 2.39 ± 0.27
O=C1c2cccc3cccc(c23)C12NC(Cc1ccc(O)cc1)C([N+](=O)[O-])C2c1ccccc1 (centres unmarked) | cell growth or viability, MTT | 24 h | 77.4
O=C(N=P12CN3CN(CN(C3)C1)C2)c1cccc[c]1[Au]([Cl])[Cl] | cell viability, MTT | 24 h | 9.5 ± 0.07
CC(=O)Oc1cc2c(cc1C(C)C)C1(CC3C(C)(CN4C(=O)c5c(Cl)c(Cl)c(Cl)c(Cl)c5C4=O)CCCC23C)C23c4c5c6c7c8c9c(c%10c%11c2c2c4c4c%12c5c5c6c6c8c8c%13c9c9c%10c%10c%11c%11c2c2c4c4c%12c%12c5c5c6c8c6c8c%13c9c9c%10c%10c%11c2c2c4c4c%12c5c6c5c8c9c%10c2c45)C713 (centres unmarked) | cell growth or viability, MTT | 48 h | > 30

Some of these lines once more:
SMILES | test | setting | IC50 [µM]
CC(=O)Oc1cc2c(cc1C(C)C)C1(CC3C(C)(CN4C(=O)c5c(Cl)c(Cl)c(Cl)c(Cl)c5C4=O)CCCC23C)C23c4c5c6c7c8c9c(c%10c%11c2c2c4c4c%12c5c5c6c6c8c8c%13c9c9c%10c%10c%11c%11c2c2c4c4c%12c%12c5c5c6c8c6c8c%13c9c9c%10c%10c%11c2c2c4c4c%12c5c6c5c8c9c%10c2c45)C713 (centres unmarked) | cell growth or viability, MTT | 48 h | > 30
